Experimental data gathered from unrelated publications.

| SMILES | test system | conditions | measurement | value |
| --- | --- | --- | --- | --- |
| CC(=O)N(C)[C@H]1CCN(C(=O)c2cnc3c(c2)C[C@](C)(c2ccc(F)cc2)N3)C1 | healthy male human | oral, 60 mg once daily, multiple rising dose, together with: midazolam | subjects with serious AEs | 0% |
| COc1ccc2c(c1)[C@]13CCCC[C@@H]1[C@H](C2)N(C)CC3 | human | oral, dose not given | subjects with terminating TEAE | 0% |
| C=C(C)[C@@H]1CCC(C)=C[C@H]1c1c(O)cc(CCCCC)cc1O | human | 750 mg, trial 17074, together with: rifampicin 600 mg | subjects with Headache | 13% |
| Cc1ncc2n1-c1ccc(Cl)cc1C(c1ccccc1F)=NC2 | human | oral, dose not given | subjects with serious TEAE | 0% |
| C[C@]1(CO)Cc2ncn(-c3ccc(C#N)c(Cl)c3)c2C(=O)O1 | human | 10 mg single dose | subjects with severe TEAEs | 0% |
| CC[C@H]1[C@@H](O)[C@@H]2[C@H](CC[C@]3(C)[C@@H]([C@H](C)CCNC(=O)NS(=O)(=O)c4ccc(C(C)(C)C)cc4)CC[C@@H]23)[C@@]2(C)CC[C@@H](O)C[C@@H]12 | human | concentration not given, study, together with: rifampin | subjects with TEAEs | 29.2% |
| Cc1ncc2n1-c1ccc(Cl)cc1C(c1ccccc1F)=NC2 | healthy humans | oral, dose not given | subjects with ≥1 adverse events | 39.1% |
| NCCCC[C@@H]1NC(=O)[C@@H](Cc2c[nH]c3ccccc23)NC(=O)[C@H](c2ccccc2)NC(=O)[C@@H]2C[C@@H](OC(=O)NCCN)CN2C(=O)[C@H](Cc2ccccc2)NC(=O)[C@H](Cc2ccc(OCc3ccccc3)cc2)NC1=O | healthy human volunteers | 600 µg twice daily | subjects with adverse event Headache | 18% |
| CNC(=O)n1ccc2cc(Oc3ccnc(NC(=O)c4ccc(C5CCN(CCO)CC5)cc4)c3)c(OCCOC)cc21 | healthy human | oral, 35 mg | subjects with TEAEs | 28.6% |
| Cn1c(-c2ccc(C(N)=O)cc2F)nnc1C(C)(C)Oc1c(F)cc(Cl)cc1F | human | oral, 10 mg, single ascending dose | subjects with any TEAE | 0% |

A few entries again:
| SMILES | test system | conditions | measurement | value |
| --- | --- | --- | --- | --- |
| CC(=O)N(C)[C@H]1CCN(C(=O)c2cnc3c(c2)C[C@](C)(c2ccc(F)cc2)N3)C1 | healthy male human | oral, 60 mg once daily, multiple rising dose, together with: midazolam | subjects with serious AEs | 0% |
